Published values pooled from the literature.
A part holds a random share of what one study measured. Positions count from the first letter of the parent shown.

Block 1
Target: MAFF, bZIP domain (human)
Technique: DHFR protein complementation
Matrix: yeast
Setting: single substitutions, most at no-binding floor
Reference: wild-type JUN-FOS pair
Direction: higher = stronger binding
Parent: JUN, bZIP domain (human); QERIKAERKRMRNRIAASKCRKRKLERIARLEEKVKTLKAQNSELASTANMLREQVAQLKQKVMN; partner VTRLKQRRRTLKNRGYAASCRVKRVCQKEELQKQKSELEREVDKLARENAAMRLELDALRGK
| Variant | binding fitness [natural log] |
| --- | --- |
| A49K | -1.16 |
| Q55T | -1.55 |
| S47E | -1.38 |
| A57M | -1.36 |
| A49G | -1.51 |
| V35C | -1.07 |
| Q41G | -1.52 |
| E32S | -1.5 |
| T37K | -1.4 |
| L52Q | -1.43 |
| I28H | -1.49 |
| V56T | -1.5 |
| L31V | -1.44 |
| Q55S | -1.43 |
| E32M | -1.51 |
| S43P | -1.49 |
| L52A | -1.57 |
| L31W | -1.45 |
| T37V | -1.32 |
| K36A | -1.51 |
| V56F | -1.48 |
| A46E | -1.45 |
| I28F | -1.12 |

Block 2
Target: RING finger protein unkempt homolog, zinc fingers 1-6, GST-SBP tag (UNK, Homo sapiens, UniProt Q9C0B0, residues 30-357)
Chain of UniProt Q9C0B0 (30-357, looked up): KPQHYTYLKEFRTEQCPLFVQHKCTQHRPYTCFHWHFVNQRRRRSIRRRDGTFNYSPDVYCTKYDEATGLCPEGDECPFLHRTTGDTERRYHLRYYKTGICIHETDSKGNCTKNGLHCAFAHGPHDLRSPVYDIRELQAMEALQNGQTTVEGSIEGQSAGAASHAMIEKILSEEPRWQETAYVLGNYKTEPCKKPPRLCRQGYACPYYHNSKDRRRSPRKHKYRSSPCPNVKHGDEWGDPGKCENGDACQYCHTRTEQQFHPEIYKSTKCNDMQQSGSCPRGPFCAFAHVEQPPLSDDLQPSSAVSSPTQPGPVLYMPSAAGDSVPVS
Technique: RNA Bind-n-Seq
Form: RNA
Matrix: in vitro
Tested at: not given
Setting: RNA with constant flanks, human-mouse chimeric sites, ends assumed
Reference: input RNA pool
Direction: higher = stronger binding
All sequences stand within: GGGAGUUCUACAGUCCGACGAUC … CAACAGAGGAUUGAGCAUCA
| Strand | bound/input enrichment [ratio] |
| --- | --- |
| GAUCAUGGAACCAGAAUAGAAAUGAAGAUGAGAUUACCCAGACGAGCCCAAAACCGCGCGCUACAGAAAAGUAAACUUAACCUUGCAGAGUUCCUUAAUGAAGAUACAAGUUAAGAGAGC | 0.431 |
| UAAAUUAGCCAGCACCAUUUCUGUUUCUCCCUGGGCUGCGGAAAGCCAGAAGAUUUUAUCUAGCUUAUACAAGGCUGCUGGUGUUCCCUCUUUUUUUCCACGAGGGUUUUUUUUCCAGCA | 1.54 |
| UGUAGUUGAUCCCCUGCUCAUUUUUCUCUUUUCUUUCAGAUCGUCAGGAAAAGCCUAAAGAUUAGGUUGUAAGAAAAACAGAAGCCAUGUUUCGAAGACCUGUGUUACAGGUAUUUCGUC | 0.163 |
| ACUCUUGACUCUUUCCAUCCUCUUCCUUUCCCUCUUGAUCUUCAAGGCCAUGAAUCCCAAAAUAACAAUCUAUCUUACUAGCACCCAAACAGAGGUGGAAUAAAUCCACCCCAGUGUCUC | 1.16 |
| CGCGUCCUCUCGCUGCUGCGGAGCCCGAGCUGGGAACCAUUCCGGGACUGGUACCCUGCACACAGCCGCCUCUUCGAUCAAGCUUUCGGGGUGCCCCGGUUGCCCGAUGAGUGGUCGCAG | 0.113 |
| AAAGUGAUGACUAUGUUUGUCCAACGACAGGUAUUUUCGGAGAGCAAAGAUGAGAUUGCUUUAGUCCUCUAUGGCACAGAUGGCACUGAUAAUGCCCUUGCUGGCAAGGAUCAGUAUCAG | 0.228 |
| AGAAUCUGUGACUGGCUUUACUUAAUUGGUCAUUGAUAGCUUAACAAACAUGGAGAUAAGAUUAGAAAUCUUGACAUCAACAGGUAUUAAGCAGAAAAAACCAUGGCCCAGAGUAUCCUG | 0.152 |
| CUGAGGAUACCACUGAAAGAGACAUUAAAGAAUCAUUUUGACGGCUCGUUCGUGCAAGAAUAGUCACUGAUCGGGAAACUGGUUCUUCCAAAGGGUUUGGUUUUGUAGACUUUAAUAGUG | 0.779 |
| UCGGAUGCUGUGCUGGGUCACUUUUCAUAUCCAGAUCCUUCACAGUGGACAGAUGAAGAACUGGGAAUCCCUCCUGAUGACGAGGACUGAAGGUGUAGACUCAGCCUACGAGUAGGAGCA | 0.155 |
| CUGGCCUGGCCCUCCCCAGGGGCCUCCUUUCGUAUAGUAACUGUCAGUGCAUCAGAUAUUUUUAGCUGCAACUCCCUACUGGGUGGGGCACCCAUUUCAGGCAGAAGGUUUUGGUACCCU | 0.74 |
| GAUGAUAAUCACACAAACAAGUCACUGUUAUGUGACCAGCCUUGGGAUUCUUUUCCUGAUUAAUAUUCUCCCUGGAACCACUAGCCAAGGGGAAUCAAGACGACAAGAACCCGGGGACUU | 0.193 |

Block 3
Target: Sal-like protein 4, full length isoform A (SALL4, Homo sapiens, UniProt Q9UJQ4, residues 1-1053)
Chain of UniProt Q9UJQ4 (whole entry, looked up): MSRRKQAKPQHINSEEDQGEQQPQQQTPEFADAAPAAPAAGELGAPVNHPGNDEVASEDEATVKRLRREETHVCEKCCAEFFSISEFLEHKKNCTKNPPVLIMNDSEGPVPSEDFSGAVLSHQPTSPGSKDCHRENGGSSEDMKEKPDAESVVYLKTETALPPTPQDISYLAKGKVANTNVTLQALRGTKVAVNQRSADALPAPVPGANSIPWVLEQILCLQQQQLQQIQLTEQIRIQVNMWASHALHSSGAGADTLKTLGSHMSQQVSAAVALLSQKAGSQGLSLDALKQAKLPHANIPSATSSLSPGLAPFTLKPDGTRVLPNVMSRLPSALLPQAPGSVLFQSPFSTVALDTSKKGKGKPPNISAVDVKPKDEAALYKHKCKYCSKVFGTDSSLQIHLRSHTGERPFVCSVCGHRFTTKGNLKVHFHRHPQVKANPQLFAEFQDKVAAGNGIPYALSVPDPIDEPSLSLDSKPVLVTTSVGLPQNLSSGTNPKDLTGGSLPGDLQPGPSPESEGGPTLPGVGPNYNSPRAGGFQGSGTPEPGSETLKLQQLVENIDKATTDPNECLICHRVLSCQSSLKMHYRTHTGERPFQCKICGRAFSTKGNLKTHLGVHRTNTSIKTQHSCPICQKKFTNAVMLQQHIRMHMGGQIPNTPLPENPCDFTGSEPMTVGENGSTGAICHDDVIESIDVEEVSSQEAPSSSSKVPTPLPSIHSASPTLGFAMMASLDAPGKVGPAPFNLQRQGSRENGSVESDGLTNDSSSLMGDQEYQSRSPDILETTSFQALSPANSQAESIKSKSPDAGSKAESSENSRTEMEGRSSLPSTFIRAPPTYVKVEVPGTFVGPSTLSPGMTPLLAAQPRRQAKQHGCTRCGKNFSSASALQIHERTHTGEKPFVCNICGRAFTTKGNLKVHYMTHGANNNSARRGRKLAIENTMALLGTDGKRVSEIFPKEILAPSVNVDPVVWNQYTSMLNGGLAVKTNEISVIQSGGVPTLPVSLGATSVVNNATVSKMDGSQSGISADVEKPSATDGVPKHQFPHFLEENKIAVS
Technique: universal PBM
Form: double-stranded DNA, one strand shown
Matrix: in vitro
Tested at: 600 nM
Setting: 8-mer, flanks averaged, mean of replicates
Direction: higher = stronger binding
| Strand | E-score |
| --- | --- |
| ATACCCTC | -0.00142 |
| AATTTGAC | 0.201 |
| AACCCTCC | -0.212 |
| ATGAGCGG | -0.0854 |
| TAGTACTA | 0.114 |
| CCTAGGCC | -0.239 |
| GCTGACAA | 0.0981 |
| AGCTTCAC | -0.138 |
| CTACGTAC | 0.13 |
| ACAGGTCG | -0.131 |
| ACATCCCT | -0.0986 |
| CCTCTCAA | -0.0676 |
| ATTGCCAC | 0.101 |
| ACTAGAAA | 0.175 |
| CCGAGGAA | -0.297 |
| AGATAGGA | 0.106 |
| ATTGCCCA | 0.0698 |
| AAAAGTCG | 0.0565 |
| AACGGCAA | 0.0602 |
| CCTGTTGC | -0.0373 |
| CAATTCCG | -0.185 |
| GGTGCGGA | -0.163 |

Block 4
Target: CCNB3, cyclin fold, Cln2 fusion (human)
Technique: yeast growth competition, sequencing
Matrix: yeast
Setting: weak parent motif
Reference: not given
Direction: higher = stronger binding
Parent: ANKRD17 docking peptide (human); PSVRRQLFVTVVK
| Variant | normalised enrichment score |
| --- | --- |
| V12A | 0.784 |
| P1A | 0.7 |
| R5A | 0.985 |
| R4A | 0.613 |
| L7A | 0.675 |
| V9A | 0.344 |
| R5K | 0.268 |

Block 5
Target: UBE2U UBC core domain (UniProt Q5VVX9)
Technique: yeast two-hybrid
Matrix: yeast
Setting: mostly zero background
Reference: not given
Direction: higher = stronger interaction
B1: MSL2 RING domain (UniProt Q9HCI7); chain LLPYFRQSLSCCVCGHLLQDPIAPTNSTCQHYVCKTCKGKKMMMKPSCSWCKDYEQFEENKQ
B2: RNF149 RING domain (UniProt Q8NC42); chain EKGIDVDAENCAVCIENFKVKDIIRILPCKHIFHRICIDPWLLDHRTCPMCKLDVIKALGYW
B3: PHF7 RING domain (UniProt Q9BWX1); chain IQHGHVGEESCILCCEDLSQQSVENIQSPCCSQAIYHRKCIQKYAHTSAKHFFKCPQCNNRKEFPQEML
B4: RFPL2 RING domain (UniProt O75678); chain MAALFQEASSCPVCSDYLEKPMSLECGCAVCLKCINSLQKEPHGEDLLCCCSSMVSRKNKIRR
B5: RNF14 RING domain (UniProt Q9UBS8); chain IKCFNSKLFLCSICFCEKLGSECMYFLECRHVYCKACLKDYFEIQIRDGQVQCLNCPEPKCPSVATPGQVK
B6: TRIM35 RING domain (UniProt Q9UPQ4); chain PSRSFKEELLCAVCYDPFRDAVTLRCGHNFCRGCVSRCWEVQVSPTCPVCKDRASPADLRT
B7: TRIM10 RING domain (UniProt Q9UDY6); chain SVTSLADEVNCPICQGTLREPVTIDCGHNFCRACLTRYCEIPGPDLEESPTCPLCKEPFRPGSFRP
Target sequence (chain): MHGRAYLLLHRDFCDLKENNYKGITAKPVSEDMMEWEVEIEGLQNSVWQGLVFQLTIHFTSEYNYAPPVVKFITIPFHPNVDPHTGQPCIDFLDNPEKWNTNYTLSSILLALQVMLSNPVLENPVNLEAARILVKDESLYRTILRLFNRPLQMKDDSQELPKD
| Molecule | lacZ reporter activity |
| --- | --- |
| B1 (MSL2 RING domain) | 10100 |
| B2 (RNF149 RING domain) | 0 |
| B3 (PHF7 RING domain) | 4470 |
| B4 (RFPL2 RING domain) | 0 |
| KRQCSDVDDICSICQAEFQKPILLICQHIFCEECMTLWFNREKTCPLCRTVISDHINKW (RNFT1 RING domain (UniProt Q5M7Z0)) | 14700 |
| B5 (RNF14 RING domain) | 5790 |
| B6 (TRIM35 RING domain) | 10500 |
| B7 (TRIM10 RING domain) | 0 |
| FLKKLEQSFMCVCCQELVYQPVTTECFHNVCKDCLQRSFKAQVFSCPACRHDLGQNYIMI (UHRF2 RING domain (UniProt Q96PU4)) | 14600 |

Block 6
Target: ABI1, truncated, D143A, DHFR fusion (Arabidopsis thaliana)
Technique: DHFR PCA, deep sequencing
Matrix: yeast
Setting: methotrexate growth selection, single substitutions
With: (+)-ABA 710 µM
Reference: wild-type fitted maximum
Direction: higher = stronger binding
Parent: PYL1, truncated, DHFR fusion (Arabidopsis thaliana); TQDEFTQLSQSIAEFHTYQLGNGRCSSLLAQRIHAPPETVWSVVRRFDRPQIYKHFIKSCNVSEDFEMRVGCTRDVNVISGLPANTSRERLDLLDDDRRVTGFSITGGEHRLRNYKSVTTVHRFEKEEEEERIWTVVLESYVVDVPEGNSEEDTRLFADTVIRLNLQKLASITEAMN
| Variant | relative binding score [%] |
| --- | --- |
| E139P | 1.78 |
| L20N | 102 |
| T120G | 49.1 |
| K126M | 107 |
| I33N | -7.76 |
| V145H | 67.6 |
| S150C | 95.2 |
| T119N | 43.3 |
| E151H | 101 |
| F56P | 21.6 |
| S140A | 20.4 |
| C25I | 101 |
| S26G | 97.4 |
| Y18T | 102 |
| E4R | 92.5 |
| P50V | 77.4 |
| V136Q | 81.4 |
